Earlier results, collected from citations in different studies.
Each numbered part shows a few of the values that one paper quotes. ± marks the error that the study gave. In brackets after ≈: the same amount, converted by molar mass.

Study 1
SMILES: CO/N=C(\C(=O)N[C@@H]1C(=O)N2C(C(=O)O)=C(COC(C)=O)CS[C@H]12)c1csc(N)n1
| organism | system | MIC [µg/mL] |
| --- | --- | --- |
| Enterobacter cloacae | clinical isolate RKI-No_308/13 | 16 (≈ 35.1 µM) |
| Acinetobacter baumannii | clinical isolate RKI-No_596/16 | > 16 |
| Klebsiella pneumoniae | clinical isolate RKI-No_544/13 | > 16 |

Further values, each from its own experiment
| Compound | tested on | test | system | setting | quantity | value |
| --- | --- | --- | --- | --- | --- | --- |
| Fc1ccccc1Cc1nc(-c2nc(C(F)(F)F)n[nH]2)cn2ccnc12 |  | equilibrium dialysis | dog plasma | 1 and 10 µM | plasma protein binding | 96.7% |
| CCC(CC)COC(=O)[C@H](C)N[P@](=O)(OC[C@H]1O[C@@](C#N)(c2ccc3c(N)ncnn23)[C@H](O)[C@@H]1O)Oc1ccccc1 | SARS-CoV-2 | viral replication | Calu-3 |  | EC50 | 200 ± 70 nM |
| CC1COc2ccccc2N1C(=O)C(Cl)Cl (stereo not drawn) | cytochrome P450 |  | male mouse liver microsomes | 30 min, with: NADPH | remaining compound | 36 ± 2% |

Excerpt of the above (study 1):
| organism | system | MIC [µg/mL] |
| --- | --- | --- |
| Klebsiella pneumoniae | clinical isolate RKI-No_544/13 | > 16 |
